Assay results from different studies.
Protocols differ between the studies behind these lines. Values after ≈ are worked out from the molar mass of the structure shown.
Organism: Staphylococcus epidermidis

| SMILES | test | test system | conditions | endpoint | result |
| --- | --- | --- | --- | --- | --- |
| CC[C@H](C)[C@H](NC(=O)[C@H](Cc1c[nH]c2ccccc12)NC(=O)[C@@H](NC(=O)[C@@H](NC(=O)[C@@H](NC(=O)[C@H](CCCNC(=N)N)NC(=O)[C@@H](N)CCCNC(=N)N)[C@@H](C)CC)[C@@H](C)O)[C@@H](C)CC)C(=O)N[C@H](C(=O)N[C@H](C(=O)N[C@@H](CCCNC(=N)N)C(=O)N[C@@H](CCCNC(=N)N)C(N)=O)[C@@H](C)CC)[C@@H](C)O | broth microdilution | 12228, Mueller-Hinton broth | 24 h, 37 °C, lowest concentration, 95% inhibition, together with: BSA | MIC | 128 µM (≈ 190 µg/mL) |
| CC[C@H](C)[C@H](NC(=O)[C@H](C)NC(=O)CNC(=O)[C@H](C)NC(=O)[C@H](CCCCN)NC(=O)[C@H](CO)NC(=O)[C@H](C)NC(=O)[C@H](CCSC)NC(=O)CN)C(=O)N[C@@H](C)C(=O)NCC(=O)N[C@@H](CCCCN)C(=O)N[C@H](C(=O)N[C@@H](C)C(=O)N[C@@H](CCCCN)C(=O)N[C@H](C(=O)N[C@@H](C)C(=O)N[C@@H](CC(C)C)C(=O)N[C@@H](CCCCN)C(=O)N[C@@H](C)C(=O)N[C@@H](CC(C)C)C(N)=O)C(C)C)[C@@H](C)CC | broth dilution | ATCC 51625 | 18 h, 37 °C | MIC | 20.3 µM (≈ 40 µg/mL) |
| CC[C@H](C)[C@H](N)C(=O)N[C@@H](CCCNC(=N)N)C(=O)N[C@H](C(=O)N[C@@H](Cc1c[nH]c2ccccc12)C(=O)N[C@@H](CCCCN)C(=O)N[C@@H](CCCCN)C(=O)N[C@@H](Cc1ccccc1)C(=O)N[C@H](C(=O)N[C@@H](CCCNC(=N)N)C(=O)N[C@@H](CCCCN)C(=O)N[C@@H](CCSC)C(=O)N[C@@H](CCCCN)C(=O)N[C@@H](C)C(=O)N[C@H](C(=O)N[C@@H](Cc1ccc(O)cc1)C(=O)N[C@@H](Cc1c[nH]cn1)C(N)=O)[C@@H](C)CC)C(C)C)C(C)C | broth dilution | KCTC 1917 | – | MIC | 100 µM (≈ 210 µg/mL) |
| CC[C@H](C)[C@H](NC(=O)[C@@H]1CCCN1C(=O)[C@@H]1CCCN1C(=O)[C@H](CCCNC(=N)N)NC(=O)[C@H](Cc1ccccc1)NC(=O)[C@@H](N)CCCNC(=N)N)C(=O)N[C@@H](CCCNC(=N)N)C(=O)N[C@@H](CCCNC(=N)N)C(=O)N1CCC[C@H]1C(=O)N1CCC[C@H]1C(=O)N[C@H](C(=O)N[C@@H](CCCNC(=N)N)C(=O)N1CCC[C@H]1C(=O)N1CCC[C@H]1C(=O)N[C@@H](Cc1ccccc1)C(=O)N[C@@H](Cc1ccc(O)cc1)C(=O)N1CCC[C@H]1C(=O)N1CCC[C@H]1C(=O)N[C@@H](Cc1ccccc1)C(=O)N[C@@H](CCCNC(=N)N)C(=O)N1CCC[C@H]1C(=O)N1CCC[C@H]1C(=O)N[C@H](C(=O)N[C@@H](CCCNC(=N)N)C(=O)N1CCC[C@H]1C(=O)N1CCC[C@H]1C(=O)N[C@H](C(=O)N[C@@H](Cc1ccccc1)C(=O)N1CCC[C@H]1C(=O)N1CCC[C@H]1C(=O)N[C@H](C(=O)N[C@@H](CCCNC(=N)N)C(=O)N1CCC[C@H]1C(=O)N1CCC[C@H]1C(=O)N[C@@H](Cc1ccccc1)C(=O)N[C@@H](CCCNC(=N)N)C(=O)N1CCC[C@H]1C(=O)N1CCC[C@H]1C(=O)N[C@@H](CC(C)C)C(=O)NCC(=O)N1CCC[C@H]1C(=O)N[C@@H](Cc1ccccc1)C(=O)N1CCC[C@H]1C(=O)O)[C@@H](C)CC)[C@@H](C)CC)[C@@H](C)CC)[C@@H](C)CC | broth dilution | ATCC 51625 | 18 h, 37 °C | MIC | 124 µM (≈ 640 µg/mL) |
| CN[C@H](CC(C)C)C(=O)N[C@H]1C(=O)N[C@@H](CC(N)=O)C(=O)N[C@H]2C(=O)N[C@H]3C(=O)N[C@H](C(=O)N[C@H](C(=O)O)c4cc(O)cc(O)c4-c4cc3ccc4O)[C@H](O)c3ccc(c(Cl)c3)Oc3cc2cc(c3O[C@@H]2O[C@H](CO)[C@@H](O)[C@H](O)[C@H]2O[C@H]2C[C@](C)(N)[C@H](O)[C@H](C)O2)Oc2ccc(cc2Cl)[C@H]1O | – | MRSE 35984 | – | MBC | 3 µM (≈ 4.35 µg/mL) |
| CC[C@H](C)[C@H](NC(=O)[C@H](CCCNC(=N)N)NC(=O)[C@H](Cc1ccc(O)cc1)NC(=O)CNC(=O)[C@H](Cc1ccc(O)cc1)NC(=O)[C@H](CCCNC(=N)N)NC(=O)[C@H](CC(C)C)NC(=O)[C@H](C)NC(=O)[C@H](CCC(N)=O)NC(=O)[C@H](CCC(=O)O)NC(=O)[C@@H](NC(=O)[C@H](CCC(N)=O)NC(=O)[C@H](CCCNC(=N)N)NC(=O)[C@H](CCSC)NC(=O)[C@H](Cc1ccc(O)cc1)NC(=O)[C@H](CCC(N)=O)NC(=O)[C@@H](N)CCCNC(=N)N)[C@@H](C)CC)C(=O)N[C@@H](CO)C(=O)N[C@@H](CCCNC(=N)N)C(=O)N[C@@H](CCCNC(=N)N)C(N)=O | broth dilution | ATCC 51625 | 18 h, 37 °C | MIC | 242 µM (≈ 640 µg/mL) |
| CS(=O)(=O)Nc1ncn(-c2cc(F)c(COc3ccc(OS(=O)(=O)F)cc3)c(F)c2)n1 | – | 14490 | – | MIC | > 50 µM |
| CNC(C)C1CCC(N)C(OC2C(N)CC(N)C(OC3OCC(C)(O)C(NC)C3O)C2O)O1 (stereo not drawn) | broth microdilution | – | – | MLC | 2 µg/mL (≈ 4.19 µM) |
| CC[C@H](C)[C@H](NC(=O)CN)C(=O)NCC(=O)N[C@@H](CCCCN)C(=O)N[C@@H](Cc1ccccc1)C(=O)N[C@@H](CC(C)C)C(=O)N[C@@H](CCCCN)C(=O)N[C@@H](CCCCN)C(=O)N[C@@H](C)C(=O)N[C@@H](CCCCN)C(=O)N[C@@H](CCCCN)C(=O)N[C@@H](Cc1ccccc1)C(=O)NCC(=O)N[C@@H](CCCCN)C(=O)N[C@@H](C)C(=O)N[C@@H](Cc1ccccc1)C(=O)N[C@H](C(=O)N[C@@H](CCCCN)C(=O)N[C@H](C(=O)N[C@@H](CC(C)C)C(=O)N[C@@H](CCCCN)C(=O)N[C@@H](CCCCN)C(N)=O)[C@@H](C)CC)C(C)C | broth dilution | KCTC 1917 | – | MIC | 3.1 µM (≈ 7.68 µg/mL) |
| CC(C)C[C@H](NC(=O)[C@H](Cc1c[nH]c2ccccc12)NC(=O)[C@H](CC(C)C)NC(=O)[C@@H](NC(=O)[C@H](CC(C)C)NC(=O)[C@H](CCCNC(=N)N)NC(=O)[C@@H](N)CCCNC(=N)N)[C@@H](C)O)C(=O)N[C@H](C(=O)N[C@@H](CC(C)C)C(=O)N[C@@H](CCCNC(=N)N)C(=O)N[C@@H](CCCNC(=N)N)C(N)=O)[C@@H](C)O | broth microdilution | 12228, Mueller-Hinton broth | 24 h, 37 °C, lowest concentration, 95% inhibition, together with: BSA | MIC | 4 µM (≈ 5.93 µg/mL) |
| CN[C@H](CC(C)C)C(=O)N[C@H]1C(=O)N[C@@H](CC(N)=O)C(=O)N[C@H]2C(=O)N[C@H]3C(=O)N[C@H](C(=O)N[C@H](C(=O)O)c4cc(O)cc(O)c4-c4cc3ccc4O)[C@H](O)c3ccc(c(Cl)c3)Oc3cc2cc(c3O[C@@H]2O[C@H](CO)[C@@H](O)[C@H](O)[C@H]2O[C@H]2C[C@](C)(N)[C@H](O)[C@H](C)O2)Oc2ccc(cc2Cl)[C@H]1O | – | MRSE 35984 | 16 h | MIC | 0.59 µM (≈ 0.855 µg/mL) |
| CC[C@H](C)[C@H](NC(=O)[C@@H](NC(=O)[C@H](Cc1ccccc1)NC(=O)CNC(=O)[C@H](CCC(N)=O)NC(=O)[C@H](CCCCN)NC(=O)[C@H](C)N)C(C)C)C(=O)N[C@@H](Cc1ccc(O)cc1)C(=O)N[C@@H](CCCNC(=N)N)C(=O)N[C@H](C(=O)N[C@@H](CCCNC(=N)N)C(=O)N[C@H](C(=O)N[C@@H](CCCNC(=N)N)C(=O)N[C@@H](CCCNC(=N)N)C(=O)NCC(=O)N[C@@H](CC(N)=O)C(=O)N[C@@H](CCCNC(=N)N)C(=O)N[C@@H](CCCCN)C(N)=O)C(C)C)C(C)C | broth dilution | KCTC 1917 | – | MIC | 100 µM (≈ 220 µg/mL) |

For quick reference, copied from above:
| SMILES | test | test system | conditions | endpoint | result |
| --- | --- | --- | --- | --- | --- |
| CC[C@H](C)[C@H](NC(=O)[C@H](C)NC(=O)CNC(=O)[C@H](C)NC(=O)[C@H](CCCCN)NC(=O)[C@H](CO)NC(=O)[C@H](C)NC(=O)[C@H](CCSC)NC(=O)CN)C(=O)N[C@@H](C)C(=O)NCC(=O)N[C@@H](CCCCN)C(=O)N[C@H](C(=O)N[C@@H](C)C(=O)N[C@@H](CCCCN)C(=O)N[C@H](C(=O)N[C@@H](C)C(=O)N[C@@H](CC(C)C)C(=O)N[C@@H](CCCCN)C(=O)N[C@@H](C)C(=O)N[C@@H](CC(C)C)C(N)=O)C(C)C)[C@@H](C)CC | broth dilution | ATCC 51625 | 18 h, 37 °C | MIC | 20.3 µM (≈ 40 µg/mL) |
| CC[C@H](C)[C@H](N)C(=O)N[C@@H](CCCNC(=N)N)C(=O)N[C@H](C(=O)N[C@@H](Cc1c[nH]c2ccccc12)C(=O)N[C@@H](CCCCN)C(=O)N[C@@H](CCCCN)C(=O)N[C@@H](Cc1ccccc1)C(=O)N[C@H](C(=O)N[C@@H](CCCNC(=N)N)C(=O)N[C@@H](CCCCN)C(=O)N[C@@H](CCSC)C(=O)N[C@@H](CCCCN)C(=O)N[C@@H](C)C(=O)N[C@H](C(=O)N[C@@H](Cc1ccc(O)cc1)C(=O)N[C@@H](Cc1c[nH]cn1)C(N)=O)[C@@H](C)CC)C(C)C)C(C)C | broth dilution | KCTC 1917 | – | MIC | 100 µM (≈ 210 µg/mL) |
